Results of several laboratories.
Each line is one published result; not all experiments were run side by side. Several values in a cell are separate wells, animals, samples, runs or records. ± gives the spread as reported.
AAK1: AP2-associated protein kinase 1 (AAK1, Homo sapiens, UniProt Q2M2I8)
UniProt Q2M2I8, sequence (whole entry, looked up): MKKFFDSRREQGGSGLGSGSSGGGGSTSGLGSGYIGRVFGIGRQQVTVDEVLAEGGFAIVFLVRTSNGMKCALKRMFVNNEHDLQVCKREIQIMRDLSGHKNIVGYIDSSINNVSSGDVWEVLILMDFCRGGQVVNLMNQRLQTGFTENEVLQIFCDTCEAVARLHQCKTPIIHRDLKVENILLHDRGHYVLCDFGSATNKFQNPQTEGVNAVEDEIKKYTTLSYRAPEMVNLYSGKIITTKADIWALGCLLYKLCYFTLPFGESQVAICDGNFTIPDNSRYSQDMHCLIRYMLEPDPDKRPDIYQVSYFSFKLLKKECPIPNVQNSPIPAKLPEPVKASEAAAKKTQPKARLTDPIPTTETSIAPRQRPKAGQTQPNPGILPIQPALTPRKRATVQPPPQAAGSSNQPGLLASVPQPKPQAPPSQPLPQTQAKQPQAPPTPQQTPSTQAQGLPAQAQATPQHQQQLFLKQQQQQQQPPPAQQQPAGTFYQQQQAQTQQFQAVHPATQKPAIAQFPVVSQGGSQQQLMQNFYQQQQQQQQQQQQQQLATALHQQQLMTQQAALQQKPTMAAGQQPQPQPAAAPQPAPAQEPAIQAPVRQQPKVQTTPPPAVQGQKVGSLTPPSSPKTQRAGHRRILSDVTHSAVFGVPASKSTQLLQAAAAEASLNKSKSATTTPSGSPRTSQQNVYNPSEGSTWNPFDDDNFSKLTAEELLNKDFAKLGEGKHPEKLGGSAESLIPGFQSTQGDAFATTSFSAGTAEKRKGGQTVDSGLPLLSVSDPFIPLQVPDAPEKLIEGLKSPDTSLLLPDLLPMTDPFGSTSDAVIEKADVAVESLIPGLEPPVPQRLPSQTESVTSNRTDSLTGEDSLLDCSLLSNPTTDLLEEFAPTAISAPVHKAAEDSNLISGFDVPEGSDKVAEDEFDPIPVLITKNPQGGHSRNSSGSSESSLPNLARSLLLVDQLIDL
EPHX2: Bifunctional epoxide hydrolase 2 (EPHX2, Homo sapiens, UniProt P34913)
UniProt P34913, sequence (whole entry, looked up): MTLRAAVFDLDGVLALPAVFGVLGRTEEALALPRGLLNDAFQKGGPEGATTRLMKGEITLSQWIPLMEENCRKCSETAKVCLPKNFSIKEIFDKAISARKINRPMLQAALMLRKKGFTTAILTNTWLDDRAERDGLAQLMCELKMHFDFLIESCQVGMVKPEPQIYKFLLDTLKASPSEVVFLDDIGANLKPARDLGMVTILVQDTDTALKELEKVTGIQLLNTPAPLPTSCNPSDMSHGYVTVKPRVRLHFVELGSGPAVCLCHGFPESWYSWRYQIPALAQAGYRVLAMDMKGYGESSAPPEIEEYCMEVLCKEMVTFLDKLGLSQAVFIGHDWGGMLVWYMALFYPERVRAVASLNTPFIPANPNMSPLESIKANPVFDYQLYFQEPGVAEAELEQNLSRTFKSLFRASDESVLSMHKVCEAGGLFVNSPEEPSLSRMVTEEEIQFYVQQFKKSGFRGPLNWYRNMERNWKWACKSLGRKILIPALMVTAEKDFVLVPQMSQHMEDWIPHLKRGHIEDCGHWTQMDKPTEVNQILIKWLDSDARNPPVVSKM
Ephx2: Bifunctional epoxide hydrolase 2 (Ephx2, Mus musculus, UniProt P34914)
UniProt P34914, sequence (whole entry, looked up): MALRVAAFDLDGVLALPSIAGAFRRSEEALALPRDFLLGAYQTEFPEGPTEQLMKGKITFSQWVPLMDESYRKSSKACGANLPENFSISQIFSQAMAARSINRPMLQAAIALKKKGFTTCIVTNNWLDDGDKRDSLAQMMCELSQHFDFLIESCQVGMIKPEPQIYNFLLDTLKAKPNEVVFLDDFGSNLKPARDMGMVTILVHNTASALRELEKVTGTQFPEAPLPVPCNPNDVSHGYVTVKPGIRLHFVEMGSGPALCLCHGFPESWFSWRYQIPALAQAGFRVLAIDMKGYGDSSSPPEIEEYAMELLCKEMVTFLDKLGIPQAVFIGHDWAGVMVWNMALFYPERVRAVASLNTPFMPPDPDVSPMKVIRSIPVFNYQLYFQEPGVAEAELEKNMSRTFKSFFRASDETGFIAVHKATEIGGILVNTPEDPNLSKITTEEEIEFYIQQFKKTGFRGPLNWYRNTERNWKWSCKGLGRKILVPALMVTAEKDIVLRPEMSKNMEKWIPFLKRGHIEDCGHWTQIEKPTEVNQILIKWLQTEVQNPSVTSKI
HLA class I histocompatibility antigen, B alpha chain allele B*27:05: HLA class I histocompatibility antigen, B alpha chain, allele B*27:05 (Homo sapiens, UniProt P01889)
FAAH: Fatty-acid amide hydrolase 1 (FAAH, Homo sapiens, UniProt O00519)
UniProt O00519, sequence (whole entry, looked up): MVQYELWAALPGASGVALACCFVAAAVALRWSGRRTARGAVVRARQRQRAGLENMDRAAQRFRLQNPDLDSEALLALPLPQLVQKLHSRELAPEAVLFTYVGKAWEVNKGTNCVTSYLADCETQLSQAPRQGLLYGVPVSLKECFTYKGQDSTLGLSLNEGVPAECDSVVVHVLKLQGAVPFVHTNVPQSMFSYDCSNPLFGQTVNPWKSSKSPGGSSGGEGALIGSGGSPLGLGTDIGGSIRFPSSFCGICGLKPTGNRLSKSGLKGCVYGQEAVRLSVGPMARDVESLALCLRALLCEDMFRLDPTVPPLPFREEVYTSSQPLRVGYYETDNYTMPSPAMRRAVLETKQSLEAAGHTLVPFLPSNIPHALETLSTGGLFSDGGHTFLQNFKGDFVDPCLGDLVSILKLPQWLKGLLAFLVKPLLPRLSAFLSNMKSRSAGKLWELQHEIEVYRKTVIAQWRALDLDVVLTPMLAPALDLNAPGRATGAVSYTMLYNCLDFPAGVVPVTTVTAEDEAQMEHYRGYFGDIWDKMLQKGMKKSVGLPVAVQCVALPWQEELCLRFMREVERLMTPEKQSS
ache: Acetylcholinesterase (ache, Electrophorus electricus, UniProt O42275)
UniProt O42275, sequence (whole entry, looked up): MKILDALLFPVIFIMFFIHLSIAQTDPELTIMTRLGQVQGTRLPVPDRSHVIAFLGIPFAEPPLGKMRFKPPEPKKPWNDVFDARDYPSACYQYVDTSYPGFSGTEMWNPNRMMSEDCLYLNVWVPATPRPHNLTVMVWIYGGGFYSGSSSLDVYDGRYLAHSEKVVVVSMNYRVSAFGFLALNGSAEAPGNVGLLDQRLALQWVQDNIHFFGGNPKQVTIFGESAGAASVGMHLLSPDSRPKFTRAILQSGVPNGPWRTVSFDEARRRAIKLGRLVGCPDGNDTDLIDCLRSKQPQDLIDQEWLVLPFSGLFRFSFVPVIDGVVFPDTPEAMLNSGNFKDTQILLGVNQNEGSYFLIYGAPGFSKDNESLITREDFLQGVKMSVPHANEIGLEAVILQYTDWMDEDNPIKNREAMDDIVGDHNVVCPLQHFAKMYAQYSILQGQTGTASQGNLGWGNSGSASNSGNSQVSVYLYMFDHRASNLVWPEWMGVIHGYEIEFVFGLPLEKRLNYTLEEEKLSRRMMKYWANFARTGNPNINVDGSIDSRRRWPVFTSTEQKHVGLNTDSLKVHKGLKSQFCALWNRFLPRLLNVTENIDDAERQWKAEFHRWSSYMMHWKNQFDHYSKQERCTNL
UniProt Q9H9B1, sequence (whole entry, looked up): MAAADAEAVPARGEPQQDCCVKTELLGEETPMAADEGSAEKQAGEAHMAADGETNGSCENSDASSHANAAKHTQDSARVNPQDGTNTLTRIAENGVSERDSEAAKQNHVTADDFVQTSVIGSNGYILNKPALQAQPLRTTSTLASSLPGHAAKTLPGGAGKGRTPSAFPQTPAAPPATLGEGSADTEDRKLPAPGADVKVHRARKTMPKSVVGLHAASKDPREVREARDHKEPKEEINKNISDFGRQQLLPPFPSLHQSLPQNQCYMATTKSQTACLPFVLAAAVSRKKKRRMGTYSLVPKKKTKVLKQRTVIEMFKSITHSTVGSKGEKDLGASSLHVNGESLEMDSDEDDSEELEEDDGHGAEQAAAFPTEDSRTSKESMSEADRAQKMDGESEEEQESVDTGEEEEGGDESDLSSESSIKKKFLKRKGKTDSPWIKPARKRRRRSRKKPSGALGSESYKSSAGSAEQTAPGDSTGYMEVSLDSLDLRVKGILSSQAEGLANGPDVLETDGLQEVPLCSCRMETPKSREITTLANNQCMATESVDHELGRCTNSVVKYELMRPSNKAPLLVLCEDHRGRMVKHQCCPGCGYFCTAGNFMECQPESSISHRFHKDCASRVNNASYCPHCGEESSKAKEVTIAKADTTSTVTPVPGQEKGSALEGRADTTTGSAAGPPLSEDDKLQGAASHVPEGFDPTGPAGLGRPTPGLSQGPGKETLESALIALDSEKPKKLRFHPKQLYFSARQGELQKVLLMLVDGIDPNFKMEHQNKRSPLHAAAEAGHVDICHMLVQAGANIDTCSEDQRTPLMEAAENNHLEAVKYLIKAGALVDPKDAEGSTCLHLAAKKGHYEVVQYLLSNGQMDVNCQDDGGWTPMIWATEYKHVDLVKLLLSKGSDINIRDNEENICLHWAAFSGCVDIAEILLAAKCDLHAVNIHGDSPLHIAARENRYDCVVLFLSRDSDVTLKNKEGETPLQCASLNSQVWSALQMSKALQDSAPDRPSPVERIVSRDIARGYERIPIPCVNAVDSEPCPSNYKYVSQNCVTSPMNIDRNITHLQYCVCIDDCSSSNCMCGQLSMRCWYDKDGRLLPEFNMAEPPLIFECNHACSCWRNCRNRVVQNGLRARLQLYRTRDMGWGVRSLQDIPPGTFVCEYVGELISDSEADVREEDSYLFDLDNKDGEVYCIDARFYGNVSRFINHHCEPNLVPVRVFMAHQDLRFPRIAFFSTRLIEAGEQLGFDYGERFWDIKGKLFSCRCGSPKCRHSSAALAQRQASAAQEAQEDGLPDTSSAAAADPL
UniProt Q02768, sequence (whole entry, looked up): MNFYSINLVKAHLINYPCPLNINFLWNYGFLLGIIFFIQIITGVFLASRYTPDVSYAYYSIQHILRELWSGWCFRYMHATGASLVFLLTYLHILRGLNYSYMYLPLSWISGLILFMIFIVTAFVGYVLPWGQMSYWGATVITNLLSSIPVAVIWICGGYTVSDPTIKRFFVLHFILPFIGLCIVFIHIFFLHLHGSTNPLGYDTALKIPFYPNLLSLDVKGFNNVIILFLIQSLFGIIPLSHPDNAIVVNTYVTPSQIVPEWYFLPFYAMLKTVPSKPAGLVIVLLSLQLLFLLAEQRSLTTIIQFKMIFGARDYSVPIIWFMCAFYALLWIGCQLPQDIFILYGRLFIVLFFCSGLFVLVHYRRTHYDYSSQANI

For `COc1ccc(-c2cc3c(C#Cc4cccnc4)c[nH]c3cn2)cc1OC`, the IC50 was 3120 nM (AAK1).
`O=C(Nc1ccc(Cl)cc1)NC1CCN(c2c(NS(=O)(=O)Cc3ccccc3)c(=O)c2=O)CC1` gave an IC50 of 15 ± 1.7 nM (EPHX2).
`O=C(O)CCCC[C@@H]1SC[C@@H]2NC(=O)N[C@@H]21` has an IC50 of 1300 to 1700 nM and 1330 nM (EHMT1 (Homo sapiens, UniProt Q9H9B1); inhibitor; apparent, bead displacement artifact).
The IC50 of `Cc1ccccc1S(=O)(=O)Nc1c(N2CCC(NC(=O)Nc3ccc(F)c(Cl)c3)CC2)c(=O)c1=O` is reported as 890 ± 102 nM (Ephx2).
For `Cc1cc(OCc2nnc(SC3CCCC3)n2-c2cccnc2)ccc1-c1ccc(S(C)(=O)=O)cc1`, the GI50 was 1760 nM (SW-620).
With `CC[C@H](C)[C@H](NC(=O)[C@H](Cc1c[nH]c2ccccc12)NC(=O)[C@H](CCCNC(=N)N)NC(=O)[C@@H](N)CCCNC(=N)N)C(=O)N[C@@H](CCC(N)=O)C(=O)N[C@@H](CC(C)C)C(=O)NCC(=O)N[C@@H](CC(C)C)C(=O)N[C@@H](CCC(N)=O)C(=O)N[C@@H](CCCCN)C(=O)O` the IC50 was 0.0027 nM (HLA class I histocompatibility antigen, B alpha chain allele B*27:05).
`CN(Cc1cnc2nc(N)nc(N)c2n1)c1ccc(C(=O)N[C@@H](CCC(=O)O)C(=O)O)cc1` gave an IC50 of 23 ± 3.3 nM (dihydrofolate reductase (Wuchereria bancrofti, UniProt J9F199); inhibitor).
`Cc1ccc(S(=O)(=O)Nc2c(N3CCC(NC(=O)Nc4ccc(F)c(C(F)(F)F)c4)CC3)c(=O)c2=O)cc1` has an IC50 of 7.1 ± 0.4 nM (EPHX2).
Under IC50, `COc1ccc(-c2cccc(-c3ccc(OC)cc3OC)c2)c(OC)c1` is recorded as “inactive” (Cytochrome P450 1B1 (CYP1B1, Homo sapiens, UniProt Q16678); enzyme activity, inhibitor).
For `Cc1c(C2(c3ccc(C(F)(F)F)c(C#N)c3)CC2)c[nH]c1C(=O)NC(C)c1nc[nH]n1` (centres unmarked), the IC50 was 35000 nM (HTR2A (Homo sapiens, UniProt P28223)).
The IC50 of `COc1ccc(-c2ccc3[nH]cc(C#Cc4cccnc4)c3c2)cc1OC` is reported as over 10000 nM (AAK1).
The IC50 of `O=C(Nc1ccc(-c2ccc3ccccc3n2)cc1)C1CCN(Cc2cccc(F)c2)CC1` is reported as 348 nM (EPHX2).
`COc1ccc(-c2ccnc3[nH]cc(C#Cc4cccnc4)c23)cc1F` has an IC50 of 2.42 nM (AAK1).
`O=C1C(O)=C([C@H]2CC[C@H](c3ccc(Cl)cc3)CC2)C(=O)c2ccccc21` has an IC50 of 0.2 nM (MT-CYB, bc1 complex (Plasmodium falciparum, UniProt Q02768)).
With `O=C(Nc1ccc(-c2ccc3ccccc3n2)cc1)C1CCN(Cc2ccccc2F)CC1` the IC50 was 42.9 nM (FAAH).
`CC[C@H](C)[C@H](N)C(=O)N[C@@H](CCCNC(=N)N)C(=O)N[C@@H](CC(C)C)C(=O)N[C@@H](CCCNC(=N)N)C(=O)N1CCC[C@H]1C(=O)NCC(=O)NCC(=O)N[C@@H](CCCCN)C(=O)N[C@@H](CCCCN)C(=O)O` gave an IC50 of 45 nM (HLA class I histocompatibility antigen, B alpha chain allele B*27:05).
`O=C(Nc1ccc(-c2ccc3ccccc3n2)cc1)C1CCN(Cc2ccc(F)cc2)CC1` has an IC50 of 1490 nM and 1500 nM (ache).
`COc1ccc(-c2ncnc3[nH]nc(C#Cc4cccnc4)c23)cc1OC` gave an IC50 of 0.394 nM (AAK1).
With `O=C(Nc1cc(F)cc(F)c1)NC1CCN(c2c(NS(=O)(=O)Cc3ccccc3)c(=O)c2=O)CC1` the IC50 was 36 ± 2.9 nM (EPHX2).
The IC50 of `O=C(Nc1ccc(-c2cnc3ccccc3c2)cc1)C1CCN(Cc2cccnc2)CC1` is reported as 77.8 nM (EPHX2).
With `C(#Cc1c[nH]c2nccc(-c3ccsc3)c12)c1cccnc1` the IC50 was 3.99 nM (AAK1).
`O=C(Nc1ccc(-c2cnc3ccccc3c2)cc1)C1CCN(Cc2ccccc2)CC1` gave an IC50 of ~1000 nM and 934 nM (ache).
`Cc1ccccc1S(=O)(=O)Nc1c(N2CCC(NC(=O)Nc3ccc(F)c(C(F)(F)F)c3)CC2)c(=O)c1=O` has an IC50 of 1550 ± 128 nM (Ephx2).
The IC50 of `CCCCCn1c2ccccc2c2cc(C(=O)NCC3CCN(CC(=O)NC(C)(C)C)CC3)ccc21` is reported as 1480 ± 200 nM (CACNA1H (Homo sapiens, UniProt O95180); T-type calcium current, blocker, whole-cell voltage clamp; tsA201 cells transiently expressing hCav3.2; tonic block).
For `O=C(Nc1ccc(-c2cnc3ccccc3c2)cc1)C1CCN(Cc2ccccc2[N+](=O)[O-])CC1`, the IC50 was 34.3 nM (FAAH).
With `O=C(Nc1ccc(C(F)(F)F)c(F)c1)NC1CCN(c2c(NS(=O)(=O)Cc3ccccc3)c(=O)c2=O)CC1` the IC50 was 2.6 ± 0.2 nM (EPHX2).
`COc1ccc(-c2ccc3c(C#Cc4cccnc4)c[nH]c3n2)cc1OC` gave an IC50 of over 10000 nM (AAK1).
For `Cc1ccc(S(=O)(=O)Nc2c(N3CCC(NC(=O)Nc4ccc(C#N)cc4Cl)CC3)c(=O)c2=O)cc1`, the IC50 was 9.2 ± 1.1 nM (Ephx2).
For `O=C(Nc1ccc(-c2ccc3ccccc3n2)cc1)C1CCN(Cc2ccc(F)cc2F)CC1`, the IC50 was 420 nM (EPHX2).
With `COc1cc(-c2ccnc3[nH]cc(C#Cc4cccnc4)c23)ccc1F` the IC50 was 1.57 nM (AAK1).
`Cc1cccc(CN2CCC(C(=O)Nc3ccc(-c4cnc5ccccc5c4)cc3)CC2)c1` has an IC50 of 5210 nM (ache).
`Cc1ccc(S(=O)(=O)Nc2c(N3CCC(NC(=O)Nc4ccc(Cl)c(F)c4)CC3)c(=O)c2=O)cc1` has an IC50 of 50 ± 4.5 nM (EPHX2).

For quick reference, copied from above:
For `Cc1c(C2(c3ccc(C(F)(F)F)c(C#N)c3)CC2)c[nH]c1C(=O)NC(C)c1nc[nH]n1` (centres unmarked), the IC50 was 35000 nM (HTR2A (Homo sapiens, UniProt P28223)).
`COc1ccc(-c2ccc3c(C#Cc4cccnc4)c[nH]c3n2)cc1OC` gave an IC50 of over 10000 nM (AAK1).
`O=C1C(O)=C([C@H]2CC[C@H](c3ccc(Cl)cc3)CC2)C(=O)c2ccccc21` has an IC50 of 0.2 nM (MT-CYB, bc1 complex (Plasmodium falciparum, UniProt Q02768)).
With `COc1cc(-c2ccnc3[nH]cc(C#Cc4cccnc4)c23)ccc1F` the IC50 was 1.57 nM (AAK1).
